# Measurements of several laboratories.
# Numbered parts are unrelated; each lists some results of a single study.

# Set 1
# Target: RING finger protein unkempt homolog, zinc fingers 1-6, SBP tag (UNK, Homo sapiens, UniProt Q9C0B0, residues 30-357)
# Sequence of UniProt Q9C0B0 (30-357, looked up): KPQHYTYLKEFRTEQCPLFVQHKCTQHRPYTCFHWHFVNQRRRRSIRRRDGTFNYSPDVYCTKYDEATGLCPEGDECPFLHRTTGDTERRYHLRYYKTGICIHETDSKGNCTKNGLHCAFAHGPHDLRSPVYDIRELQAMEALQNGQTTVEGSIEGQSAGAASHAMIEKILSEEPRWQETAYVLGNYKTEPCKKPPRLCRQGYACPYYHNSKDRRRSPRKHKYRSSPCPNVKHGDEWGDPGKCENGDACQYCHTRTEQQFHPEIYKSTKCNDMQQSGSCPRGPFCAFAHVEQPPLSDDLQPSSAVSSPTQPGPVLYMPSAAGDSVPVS
# Technique: RNA Bind-n-Seq
# Form: RNA
# Matrix: in vitro
# Tested at: 100 nM
# Setting: RNA with constant flanks, vertebrate orthologous sites, ends assumed
# Relative to: input RNA pool
# Direction: higher = stronger binding
Strand,bound/input enrichment [ratio]
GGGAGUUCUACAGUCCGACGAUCGGACCAUACAUAUACAAUGUGUAUCAAAUGCUGGUUGUAAAAUUAAACCAUCAUCUAGAAUAGAGUUCUUUUGUUAUAAUCAAGUUACAAAUAGGUUUUCUUAAACCAGAGAUGCACCGCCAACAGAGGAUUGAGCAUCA,0.465
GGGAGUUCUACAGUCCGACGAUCCAUUGAAUACAGGGGGAGAUACUGAAUAUUAACAUUGUCUUUUAUGUUUUGCACCCUAAUAUCUAUUCUUUUUAAAUUUUCAGACUUCACUGAUCUUUGAAUUGAUCCAGGUUACCGGAACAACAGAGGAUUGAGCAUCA,0.889
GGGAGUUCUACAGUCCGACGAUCAGAGGAACAGCAUAGGCUGUUUGAGCUUUGGGAAAAUGAGCUUUGCUUUUUAUAUUUAAAUAGGAUACUUUUAUAUGAUGGGUGCUCUGAGUGUGAAUGCAGCAGGCUGUCCAUUUCAGACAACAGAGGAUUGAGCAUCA,0.89
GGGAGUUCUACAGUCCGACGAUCUUUGAGGGAGAGAUUCCUGUGGUUUUUUAAUACUUAAUUUGUUUUCUUUAGCUAUUCCAGUAUGCCAUUUUUGAUGGAACUGGUUUAUUGACAGUUCCUGGCAUAUGGUCAGAUUAGAUACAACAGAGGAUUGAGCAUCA,1.3
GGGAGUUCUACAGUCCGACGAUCAGAUUUGGACCUAGGAGCCAAACCAGGGAGCUAGCAGAAGUAAAGCAGAGUGUAAAAGUAUAGCCAUAUGCAGCUGCCCAGCAACGGUACUACCACUAGCAGCUGUGUUAAAGUAUUUAUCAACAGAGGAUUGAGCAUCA,0.65
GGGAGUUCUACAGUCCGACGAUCCAGCGCCAUGGUGGAGGGCUCCGAGCUCAAAAAGGUGCGCUCCAGCUCUAGGGUUUACCCCAGGUAUUUCCUGCUGGACGCCGACAUGCAGAGCCUGAGGUGGGAACCAUCCAAGAAGGACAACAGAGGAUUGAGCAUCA,0.167
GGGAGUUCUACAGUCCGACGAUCAAUUUUUUAAAGUUUUUUUAAUUUAAUUUUUCCUUUGGGGGUAAAGUUUGCUCUACCAAAUAGUGAUCGUAAACAAAUUGAUCUGUUUUGGAUGUUGCUAUAGUGACAUGCAGUUAUAUACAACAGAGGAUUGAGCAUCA,0.862
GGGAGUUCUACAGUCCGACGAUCUCUUUUUAUUGAUCAGGUCUAUAAAUGUGUACUAAAAAAUCAGUUUAUUUAUAAACAGAAGAGUUUAUUUAAAGAGAAAGUCUUUCCUCAUCGGUAUCGUGGUAUGCAUUAAUUCCAUUUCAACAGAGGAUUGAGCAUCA,0.207
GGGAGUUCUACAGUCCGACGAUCGCAAUGAAAAAGCAGCCCUUCUCCCAGCCCCCUUUUCACUAGGAGAUACAAACGUUACGAUAGAAGAGCAAUUAAACUCAAUAAAUUUAUCUUUUCAGGAUGAUCCAGACUCCUGUACCACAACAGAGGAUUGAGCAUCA,1.36
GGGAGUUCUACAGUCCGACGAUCGUACUGCCCGUGCAAAUCCCACAACACUGAAUGCAAAGUAGCAGUUUCCAUAGUCACAGUUAGGUAGCUUUAGGGCAAUAUUGCCAUGGUUUUACUCAUGUGCAGGUUUUGAAAAUGUACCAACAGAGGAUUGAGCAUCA,1.25
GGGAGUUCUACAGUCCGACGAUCCCGAAGCUUUGUAUUUGGCUGCACUUGCAUAAGCUGCUACAAAUAGAAUAAAGAAUUUCAUAGCCUGUAUCUAUCAUUUAGAUGCAUGGUAAAUGGGCUUUGCACACAAUGGGUUUGGAGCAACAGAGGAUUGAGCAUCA,1.04

# Set 2
# Target: Fragile X messenger ribonucleoprotein 1, C-terminal low-complexity region (Fmr1, Mus musculus, UniProt P35922)
# Technique: RNA Bind-n-Seq
# Form: RNA
# Matrix: in vitro
# Tested at: 200 nM
# Setting: whole 134-nt RNA, ends assumed
# Added: 150 mM KCl
# Relative to: input library
# Direction: higher = stronger binding
Strand,log2 enrichment
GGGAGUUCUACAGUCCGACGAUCGUCCUGUGCUACACAUCGUAUGUACCGAAUCGGGUUUGGGUUUUUGGGUUUUUUUGGGAAAGUAUUAUGUUACGCCGUUCGGAUCUGCACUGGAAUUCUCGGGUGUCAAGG,0.282
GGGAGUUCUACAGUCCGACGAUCUUCCCGGAGAACUCGAGUAAAUCUAGAAGUUGCCAGGUUUCAGAACUAUUUAUUCCUUUAAUGUGCAGACGAAGGGAACGUCAUCGUUUGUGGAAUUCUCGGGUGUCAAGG,0.0716
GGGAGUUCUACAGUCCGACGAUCUGCACACCGCCUUGCACAUAGCAGAGGCUCCGGGCUCACUCCUUCCUGGUGGGAAAGGAAGAUGCCUGUCCUCUCCGUGGAAGACCCUGGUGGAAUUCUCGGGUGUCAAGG,-1.15
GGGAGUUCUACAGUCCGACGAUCGCAGGAAGUAAAAACAAAUGGAAAUGCUUCGGAUAUUGGCAGGGGUGGGGGUUGCUAAGGAAAGGGUGGGAUGGGAGUGGGUAAAGAGUUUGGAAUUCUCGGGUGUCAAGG,1.03
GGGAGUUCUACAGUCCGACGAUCCACAAACAACACGCACCCACACAGACACAGAGGGAAGGGGUUGGGAUGGGGACAGGGUGCACAGCAGGGCGGGGUAGGACCCCAGCCCCUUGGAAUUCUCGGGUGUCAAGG,1.28
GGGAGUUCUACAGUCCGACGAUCUCCUGUGCUACACAUCGUAUGUACCGAAUCGGGGAAAAAAAGGGGUUUUUGGGGUGGGGAAAGUAUUAUGUUACGCCGUUCGGAUCUGCAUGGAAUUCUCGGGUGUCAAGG,0.883
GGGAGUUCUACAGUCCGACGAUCACCAUGCAGGUGGGCAUCUUUGGGAGGUGGGGCAAGGGGGGGAUAGGGAGGGGGGUAACACUUUGGGAACAGGUGGUCCCAGGUCGUUUCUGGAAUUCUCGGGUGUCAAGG,0.928
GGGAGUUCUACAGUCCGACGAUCACCAUGCAUGUGGGCAUCUUUGGGAAGUGGGGCAAGGGGGGGAUAGGGAGGGGGGUAACACUUUGGGAACAGGUGGUCCCAGGUCGUUUCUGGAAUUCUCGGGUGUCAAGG,0.785
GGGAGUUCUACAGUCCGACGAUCUGGUUAGUCAACUACUUUGGUUCCUUAUCAGUAGAAGACUCCCUAGAAUGUCUCAGAGCCAUGCUGUCUGCCAACAUCCGUCAGAAUCUGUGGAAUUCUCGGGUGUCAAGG,-0.144
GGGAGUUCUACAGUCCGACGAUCUCAAGUCCUGUGCUACACAUCGUAUGUACCGAAUCGGGGAGGGGUGGGGAGGGGAAAGUAUUAUGUUACGCCGUUCGGAUCUGCACUUCCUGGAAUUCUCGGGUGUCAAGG,1.31
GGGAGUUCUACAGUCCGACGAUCUGGGAGGUGGAUUUUGUUUAUUUUUUUAGCUCAUUUCCAGGGGUGGGAAUUUUUUUUUAAUAUGUGUCAUGAAUAAAGUUGUUUGUGAAAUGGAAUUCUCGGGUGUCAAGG,0.614
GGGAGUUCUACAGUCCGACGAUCCUGUGCUACACAUCGUAUGUACCGAAUCGGGCCCCCCCGGCCCCCCCGGGGCCCCCCCGGGAAAGUAUUAUGUUACGCCGUUCGGAUCUGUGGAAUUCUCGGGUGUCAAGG,-0.874
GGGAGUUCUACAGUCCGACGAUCAGUCCUGUGCUACACAUCGUAUGUACCGAAUCGGGUGGGUUUUUGGGUUUUUUUGGGAAAGUAUUAUGUUACGCCGUUCGGAUCUGCACUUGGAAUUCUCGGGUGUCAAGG,0.39
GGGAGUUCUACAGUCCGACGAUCCACAGACAACACGCACCCAUACAGACACAGAGGGAAGGGGUUGGGAUGGGGACAGGGUGCACAGCAGGGCGGGGUAGGACCCCAGCCCCUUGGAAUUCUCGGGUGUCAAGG,1.41

# Set 3
# Target: Histone acetyltransferase KAT6A, winged helix 1, GST fusion (KAT6A, Homo sapiens, UniProt Q92794, residues 1-85)
# Technique: protein binding microarray
# Form: double-stranded DNA, one strand shown
# Matrix: in vitro
# Tested at: not given
# Setting: 8-mer, flanks averaged, mean of 2 arrays, mostly near background
# Relative to: not given
# Direction: higher = stronger binding
# Construct (chain): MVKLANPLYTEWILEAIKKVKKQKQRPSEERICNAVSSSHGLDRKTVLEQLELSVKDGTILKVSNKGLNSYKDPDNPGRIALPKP
Strand,E-score
AGATCCTG,-0.176
ACCTTTAC,-0.0529
GGAGGGTA,-0.0107
CGAGACAG,-0.165
ATGGCTGG,-0.202
CAGTGGCA,-0.175
AAAGCCGT,0.325
GGCAGCAA,-0.00536
CGCGTATC,0.353
AACGGAGG,0.152
ATAGTCAG,-0.12
CCGTTACG,0.379
AACAATAG,-0.103
GATGCGAC,0.281
AGAAGCTA,-0.0698
AGATAGAG,-0.221
CAAGCCTG,-0.121
AAGTGGAG,-0.239
ACGATGAC,0.0322
CCAGTTAG,-0.211
ATACTTAC,-0.145
CCTAATAG,0.00683
AAAGAGAT,-0.129

# Set 4
# Target: RNA binding protein fox-1 homolog 2, RRM domain, GST-SBP tag (RBFOX2, Homo sapiens, UniProt O43251-10, residues 100-194)
# Technique: RNA Bind-n-Seq
# Form: RNA
# Matrix: in vitro
# Tested at: 365 nM
# Setting: natural RNA segment, single round, ends assumed
# Relative to: no-protein control
# Direction: higher = stronger binding
# Construct (chain): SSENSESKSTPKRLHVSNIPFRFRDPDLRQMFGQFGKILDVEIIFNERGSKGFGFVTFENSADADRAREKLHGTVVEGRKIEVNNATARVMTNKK
Strand,RBNS enrichment (R)
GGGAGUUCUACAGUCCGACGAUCGCUACUACUAUGUUAUGAGAGUCAAAAAUAACUCCUUGUGUUUGCUUAAUUUAUUGUUUAACACCCCCUAACUGCCGAAACCAAAGUGAUACGGAGUCGUCUUGUCUGCAUGGAAUUCUCGGGUGCCAA,12.7
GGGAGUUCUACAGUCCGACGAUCUGGGGAGCAGGGACGGCCAUGGGCACGCCUGGCCACGCUUUACCGACUGCUGACCCCCUGGGCCAGGUGAGGUUGGGGCCUGUGGGCCGCCAGUCCAUACGGUGCUGUCAUGGAAUUCUCGGGUGCCAA,0.342
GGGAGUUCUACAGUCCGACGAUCCUUUUUUCCCUAUUUUCCACCCCAGUCGCUCCUUACCGUGACUCCUGCCCUUGGAGGGCAUGUAGCAGUGUCUGUCCUGCCAGUCCCAAGGCCCUGUGGGAGGAGACUGGUGGAAUUCUCGGGUGCCAA,0.477
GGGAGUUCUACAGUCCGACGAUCGGGUAGUAGCCUUGUUAUUUGACUUAACUUGGUGGGGACAUGAAUAAAGGUCAAAGGUUGCACCGUGUGUGGCAGCUUCCUGUCUUUACUGGCCUACCUUGGCUGUGAGCUGGAAUUCUCGGGUGCCAA,0.377
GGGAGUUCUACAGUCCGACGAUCUCGACAAAUGAGGGCAGACGGCUAAUCCACAUGGUCUUCGUCCUUGACGUCGUUUUACAAGAAAACAAUGGGGCUGGUUUUGCUUCCCCGUGCAUGAUUUACUCUUAGAGUGGAAUUCUCGGGUGCCAA,4.5
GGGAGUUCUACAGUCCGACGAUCAGUAAGAAAUACAAGCCAGGCCGGGCGGUGGUGGCGCACACCUUUGAUCCCAGCACUUGGGAGGCAGAGGCAGGCGGAUUUUUGAGUUUGAGACCAGCCUGAUCCAUAGAUGGAAUUCUCGGGUGCCAA,0.612
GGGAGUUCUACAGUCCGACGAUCGGGGACAAUUUCCCCAUCCCCAAGUGGGGACAAUUUACUUCCUUCUUUGCUGGUUUACUCUAGGACUUCAAAGUUUGUCUGGGAUUUUUUUAUUAAAAAAAAUUGUCUUUUGGAAUUCUCGGGUGCCAA,1.68
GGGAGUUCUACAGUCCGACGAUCUAGCCAGGGUCUGUUCUUGUGGACCAGAGCCAGCCUAGUCAUUAUUUGCUGUCGGGUUUCCAGUUUCACCGUGUGUUAGGGUGAGGGAUGAUUGUAAAAUUUGCUCCUCAUGGAAUUCUCGGGUGCCAA,0.198
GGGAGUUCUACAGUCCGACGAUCUCUCUUCCUGAUGGUGCAGAACCCAGAAUUAGAAGUUUGUGGUUACAGCAUACUCUGUCCUUCAGAAAGGCGUGAUUCUAGCUGUUGACCCCUUGCAGCUGUUGGAAUCUUGGAAUUCUCGGGUGCCAA,0.838
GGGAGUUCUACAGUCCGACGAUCUUUAAGAUAUAGUUAAGAUAUAAAAGAAUGGCAGAAUGCGAUUGAUUCCUUCCUGUCGAGUUAAAUCUAAUCAGAUAUGAUGGAUGCCGGUAGUCCCAGCACUUGGAGAAUGGAAUUCUCGGGUGCCAA,0.355
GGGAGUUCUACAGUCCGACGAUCCCCUGUACUUAAGAGGGAGAGGUGGGAGGUGCUGUCUGGUAUCAUUUGCUGCCUCGCCAGUAGAGGGUGCCGCUGUGCAGGGUAACUGCCCGCCUGCUCCCUUCCUGACCUGGAAUUCUCGGGUGCCAA,0.255
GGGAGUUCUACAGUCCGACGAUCAAGAGUGGUUUUAACAUGGGACAGAAAAUAGUCUUUUCCUAUUCUCUCAAUCCAUUUUUAGGUAGAAAGGGUCUUAAGUGAUACUUAUGCUUUGGCAUCCAGAGCAUAAGUGGAAUUCUCGGGUGCCAA,0.212

# Further values, each from its own experiment
Substance,target,assay,system,conditions,how to read,endpoint,value
"PhoQ, residues 284 288 289 292 302 303 SLANKL","PhoP, residues 12 14 15 18 19 NHFRA (Escherichia coli, UniProt P23836)","Sort-seq, refers to: YFP reporter",E. coli,"PhoQ-PhoP variant library, added: 10 µM Mg2+","relative to: high Mg2+ state, higher = stronger signaling",fold induction,3.04
